Measured values pooled from the literature.
Numbered parts are unrelated; each lists some results of a single study.

Series 1
Target: Ras GTPase-activating protein-binding protein 1, RRM domain (G3BP1, Homo sapiens, UniProt Q13283)
UniProt Q13283, sequence (whole entry, looked up): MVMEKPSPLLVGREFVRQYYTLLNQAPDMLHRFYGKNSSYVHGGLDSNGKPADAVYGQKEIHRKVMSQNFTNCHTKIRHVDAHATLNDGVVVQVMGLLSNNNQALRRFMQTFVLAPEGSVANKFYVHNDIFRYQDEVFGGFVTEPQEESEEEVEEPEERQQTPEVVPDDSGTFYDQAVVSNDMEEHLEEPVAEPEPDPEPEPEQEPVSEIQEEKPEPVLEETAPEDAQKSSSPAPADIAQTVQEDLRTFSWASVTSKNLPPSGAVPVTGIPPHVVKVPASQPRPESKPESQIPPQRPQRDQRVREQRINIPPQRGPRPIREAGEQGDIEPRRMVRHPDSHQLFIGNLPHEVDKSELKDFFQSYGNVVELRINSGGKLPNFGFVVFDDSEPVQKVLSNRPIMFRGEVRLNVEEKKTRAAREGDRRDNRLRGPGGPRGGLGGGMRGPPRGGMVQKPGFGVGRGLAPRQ
Method: RNA Bind-n-Seq
Form: RNA
Sample: in vitro
Tested at: 1 µM
Setting: whole 134-nt RNA, ends assumed
Together with: 150 mM KCl
Relative to: input library
Reading: higher = stronger binding
Shared flanks, not repeated: GGGAGUUCUACAGUCCGACGAUC … UGGAAUUCUCGGGUGUCAAGG
With `CCUGUGCUACACAUCGUAUGUACCGAAUCGGGGAAAAAAAGGGGUGGGGUUUUUUUGGGGAAAGUAUUAUGUUACGCCGUUCGGAUCUGC` the log2 enrichment was 0.427.
`CAAGUCCUGUGCUACACAUCGUAUGUACCGAAUCGGAAAGGGAAAGGGGAAAGGGGAAAGUAUUAUGUUACGCCGUUCGGAUCUGCACUU` has a log2 enrichment of -0.13.
`GUCCUGUGCUACACAUCGUAUGUACCGAAUCGGGAAAAAAAGGGAAAAAGGGAAAGGGAAAGUAUUAUGUUACGCCGUUCGGAUCUGCAC` has a log2 enrichment of 0.397.
`ACCAUGCAGGUGGGCAUCUUUGGGAAGUGGGGCAAGGGGGGGAUAUGGAGGGGGGUAACACUUUGGGAACAGGUGGUCCCAGGUCGUUUC` has a log2 enrichment of 0.821.
With `AGUCCUGUGCUACACAUCGUAUGUACCGAAUCGGGGUGGGGUUUGGGGUUUUUGGGGAAAGUAUUAUGUUACGCCGUUCGGAUCUGCACU` the log2 enrichment was 1.07.
`UGGAAGCUCAUACGACUGUGAAAGAAGCUGAGGAUGACAACAUCUCGGUCACAAUCCAGGCUGAAGAUGCCAUCACUCUGGAUUUUGAUG` has a log2 enrichment of -0.303.
`AGAGAAAAGGAACAGUUCCGUAAGCUCUUUAUUGGUGGCUUAAGCUUUGAAACCACAGAAGAAAGUUUGAGGAACUACUACGAACAAUGG` gave a log2 enrichment of -0.246.
The log2 enrichment of `CCUCAAGUCCUGUGCUACACAUCGUAUGUACCGAAUCGGGAGGGAGGGUGGGAAAGUAUUAUGUUACGCCGUUCGGAUCUGCACUUCCAG` is reported as 0.791.
For `CUCAAGUCCUGUGCUACACAUCGUAUGUACCGAAUCGGGGCCGGCCGGGCCGGGAAAGUAUUAUGUUACGCCGUUCGGAUCUGCACUUCC`, the log2 enrichment was -0.597.
For `UGGCCCUGGUGGCUUGCGGGGAGGAAGAGGUGGCCUCAUGGAUCGUGGUGGUCCCGGUGGAAUGUUCAGAGGUGGCCGUGGUGGAGACAG`, the log2 enrichment was 0.942.

Series 2
Target: RING finger protein unkempt homolog, zinc fingers 1-6, GST-SBP tag (UNK, Homo sapiens, UniProt Q9C0B0, residues 30-357)
Method: RNA Bind-n-Seq
Form: RNA
Sample: in vitro
Tested at: not given
Setting: RNA with constant flanks, human-mouse chimeric sites, ends assumed
Relative to: input RNA pool
Reading: higher = stronger binding
Shared flanks, not repeated: GGGAGUUCUACAGUCCGACGAUC … CAACAGAGGAUUGAGCAUCA
Construct (chain): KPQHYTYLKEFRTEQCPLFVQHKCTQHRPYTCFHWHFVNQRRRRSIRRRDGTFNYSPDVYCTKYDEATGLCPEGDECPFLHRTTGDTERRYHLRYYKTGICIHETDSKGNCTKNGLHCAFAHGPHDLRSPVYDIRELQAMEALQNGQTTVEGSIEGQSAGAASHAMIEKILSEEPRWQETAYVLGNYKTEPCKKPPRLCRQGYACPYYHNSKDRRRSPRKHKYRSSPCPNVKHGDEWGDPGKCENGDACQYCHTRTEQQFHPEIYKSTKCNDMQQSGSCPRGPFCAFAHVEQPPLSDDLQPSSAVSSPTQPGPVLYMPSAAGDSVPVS
`UUACCCGAGAACGAGGAUGAGCUGGAGAGCACCAACAGGCGCUACACCAAGAGGGACUGCAGCACUUUCCUCAGAACUAGUGAGACGGGCAUCGUGGAUCAGGUUAUGGUCACUCUCAAC` gave a bound/input enrichment of 0.109 ratio.
`CUUAAUGUUAAUAUUUUUGAAUAAAUGUAAAACCAUGUUUGCUUUCUGGUACAACACGCAUUAAUAAAAGGUUAAGUUUUGUUUUCCACUGAAGUACUAUUUAACAUCUCAGAAAAAAAC` has a bound/input enrichment of 0.198 ratio.
`CAGCUGCAGACAGAAAAGGAUGAGAAGGAGCUGUAUAAGGUACAUUUGAAGAAUACAGAAAUAGAAAAUACGAAGCUUGUGUCAGAGGUCCAGACUUUAAAGAAUUUAGAUGGAAACAAA` has a bound/input enrichment of 5.49 ratio.
With `UCUUUAAAAAAAAAAUUACCUUUUCUGACAGUGCUUUCCCUCCCAUAGGUCCAGGUUCAAGCUCAAAGAGCAAAGGCUUUGCACGGAGCUCAAACAUCUGAUGAAGAUUUUUGAGACAGA` the bound/input enrichment was 0.483 ratio.
The bound/input enrichment of `GGACAUCUGUCAAAUUGUAUUUCCCGUGUGAAACAAGUGAGCACUUUGAUACACUUCAUCUGCUUGUACAUCUGUAUGAUAGAGAAAUGUAAAUAUGUUAAUCCAAGCAAUGUGUCACUU` is reported as 0.254 ratio.
For `ACAGUUAUAUUGUUGAGUUUCAUUUUCAUAUAUUCUUAUGGUGUCUGCUUGCCUGUGACUUCUGGUAAAAUAAGACUAGCCUUUGAAAAUAUUUUAGCAUGGUAUUUAACAUUUUCUAAA`, the bound/input enrichment was 3.07 ratio.
The bound/input enrichment of `UGACAAGGGCACUGCAGAGCCAUGCCUUUCCUUGACAUACAGAAAAAGCUGGGCAUCAGCCUGGACCGGCACUUUAUGUUCCUAAGCGCAGAACAGCCCUACAAGAUCGCCGCUCGGUGC` is reported as 0.0854 ratio.
The bound/input enrichment of `CGCCUGGAUGAGGCGGGUGUCACAGAUGAAGUGCUAGAUUCUGCCAUGCAAGCCUUCCUUCUGGAGGUCAUUGUUAAACAUGGGGAGCCGGCACCUUAUUUAUGUAACAAAGAUCCGUUU` is reported as 0.0956 ratio.
For `UAAGUUAUUUUGUACAGCUUUGUAAAUUCUUAACAUUUUUAUAUUGCACAUUUUAUGUUUUUUAGAUAAUUUGGUUCAUUAAGUACAUAGCUAAGGUAAUGAACAUCUUUUUCAGUAAUU`, the bound/input enrichment was 2.91 ratio.
The bound/input enrichment of `AUGGAACAUUUCGAUGCAUCACUUAGUACCUAUUUCAAGGCAUUGCUGGGCCCCCGAGAUACAAGAGUCAAAGGAUGGUUCCUCCUGGACAAUUACAUCCCUACGUUUGUCUGUUCUGUU` is reported as 0.466 ratio.
`CGCUGGCCCAAGCUGAUGGACUCUGAUCUUGAUCUCUUCUCAGGCACGUGUGCCUUCUCUUAGUCCCUGUUUUCGGGAUGUUAUGAAUCUCAGUACUGUGGUUUGAAAGCAGUUAUGUUG` gave a bound/input enrichment of 0.21 ratio.

Series 3
Target: RNA binding protein fox-1 homolog 2, RRM domain, GST-SBP tag (RBFOX2, Homo sapiens, UniProt O43251-10, residues 100-194)
Method: RNA Bind-n-Seq
Form: RNA
Sample: in vitro
Tested at: 365 nM
Setting: natural RNA segment, single round, ends assumed
Relative to: no-protein control
Reading: higher = stronger binding
Shared flanks, not repeated: GGGAGUUCUACAGUCCGACGAUC … UGGAAUUCUCGGGUGCCAA
Target sequence (chain): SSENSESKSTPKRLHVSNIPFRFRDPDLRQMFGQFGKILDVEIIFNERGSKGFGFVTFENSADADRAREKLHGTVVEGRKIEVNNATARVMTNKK
`CUUUUCCCAAACGGGAAGAACACAGCACACCCGGCUUGGACCCACUGCAAGCUGCAUCGUGCAACCUCUUUGGUGCCAGUGUGGGCAAGGGCUCAGCCUCUCUGCCCACA`: “RBNS enrichment (R)” 1.65.
For `CAUCUGGCACCAAUUAGGUAUUUCUUAAAACAGGACUCAUCUGUCAGAGUGCACAUGAAAAAUCAGGCAGGGAAUCGAAACGACAGUGCUGGAGGAGACUCAGGAAGCAG`, “RBNS enrichment (R)” read 0.438.
Under “RBNS enrichment (R)”, `AUCACACAAGAAGAGACAACUUCACUUUGAACAUUAGAUCCACUCAAGAUUAGUCCACGAAUGAUCCCCACCUCUUCUGCACAGGAUCCGUGGUCGUGACCCCACUGGCU` is recorded as 0.276.
`GGCACUUCCCAGCCUGCUUUUGGGAAGGCUCCUAUGGCCCCUGUGGGCACAAUGAAAAUGUUUACACUGAUGCAUGGCAGGGUUCAGCCUGAAUGCUUCUAGCAAAGGUG`: “RBNS enrichment (R)” 21.2.
`UAUAUAUAAAAAGGCAGCCAUUGCUAUUGCAAUUCAUUUAAUAAAGCUUUAGUUUAAACAAAAGUAUUGUAUACAGGAACUAUGUAUAGUGCAGGGGUUCUUUUCAGUUA` — result for “RBNS enrichment (R)”: 0.456.
For `CUCCCAUGCCAGAACAGAGGAUGGCAGUCUGUUUCAAUAAGACACUGUGUCCUUGGUGUUGGUUCUGAUUAAGACUCACUGAGAUCCAGUGCUCUUGAGCUGGGUCUCAG`, “RBNS enrichment (R)” read 0.204.
`CACGCUCUCCAUGCUAGAGAGCCUUCUCUUUCCUCUGAGGUUUGAACUGAUGUUCUGUGUCUUCACACCCUGGCAUGACAGUUACGUGUGGUCAGCCCGCUCCCCAGGCC` — result for “RBNS enrichment (R)”: 0.439.
`CCAGCAUGCACUUCAGGAUCAUUAGUGUAUUUAGAAUCUGUAAAAAUAAUAAAUAUGUUUGAAACAAUUUCUUGUUGUUUUGUCUAUGUGUGGACGCCUGACUUGCCAGC`: “RBNS enrichment (R)” 11.9.
`UUGCACUUAUGAACAAGGAACCUUCUUUUCAAUUUCUGUGUAAUUUGCAAGGCUGUACAAUGUGUGCUGAUGCAAGCCUUUUUCAGUUCAAGAGAAUAAAUGUUUACAAA` — result for “RBNS enrichment (R)”: 0.791.
`UAAAUGCUAUUGCAUCAUAUAAUUUGCUAUUCAUCCACUAUGGCAUUGCAUAUCAAUCAGUUAAUACACUUAAUGUUGCAUGAGUGAUAUUUUGGUCUGGGUUUCCUCUU` — result for “RBNS enrichment (R)”: 0.657.
Under “RBNS enrichment (R)”, `UACAGUUUGUGAGGACCUUUGCACUUUGCCAUCUGAUGUCGUACCUCGGUUCACUGUUUGUUUUCGAAUGCCUUGUUUUCAUAGAGCCCUAUUCUCUCAGACGGUGGAAU` is recorded as 0.742.
Under “RBNS enrichment (R)”, `CCUCUCUAGUCAAAGUGGUAUUACAGACAUUCAGUGACAAUGAAUCAGUGUUAAUUCUAAAUCCUUGAUCCUCUGCAAUGUGCUUGAAAACACAAACCUUUUGGGUUAAA` is recorded as 0.385.

Series 4
Target: Sal-like protein 4, full length isoform B (SALL4, Homo sapiens, UniProt Q9UJQ4-2, residues 1-616)
Method: universal PBM
Form: double-stranded DNA, one strand shown
Sample: in vitro
Tested at: not given
Setting: 8-mer, flanks averaged, mean of replicates
Reading: higher = stronger binding
`TAATTCAA` gave an E-score of 0.329.
`GGGGGAGA` has an E-score of -0.105.
With `ACACTAAC` the E-score was 0.0971.
For `CCACCGAG`, the E-score was -0.275.
With `ATACGGAT` the E-score was 0.148.
The E-score of `AGAGACAG` is reported as -0.131.
`ACATGCCG` gave an E-score of 0.135.
The E-score of `AGTGGTAC` is reported as -0.174.
With `CTTGAAGC` the E-score was -0.00811.
With `AGAGTGAT` the E-score was 0.0579.
`AGTTACCA` has an E-score of 0.0673.
`TGGGGGAA` gave an E-score of -0.151.
`GCACATTA` gave an E-score of 0.189.
The E-score of `CCATCGCC` is reported as -0.24.
With `GTCGCAAC` the E-score was -0.0786.
With `TCATCTCA` the E-score was 0.0539.
`AACCGGCC` has an E-score of -0.384.
`CTGTAGAA` gave an E-score of 0.101.
`ACTACTCA` has an E-score of 0.0647.
The E-score of `CGGCGCCG` is reported as -0.299.
